Experimental data collected from several papers.
“And” joins repeats or separate records; there may be more than shown. ± marks the error that the study gave. In brackets after ≈: the same amount, converted by molar mass.

`C=CC(=O)N1[C@H](c2ccc3c(c2)OCO3)c2[nH]c3ccccc3c2C[C@H]1C(=O)NC` has an inhibition of 94% and 91% (PQLC3 Cys135 human; cysteine IA-DTB labelling, covalent inhibitor, MS-ABPP; 22Rv1; 20 µM, 3 h).
`CNCc1ccc(-c2cc(-c3nc(-c4ccc(S(=O)(=O)C(C)C)cc4)cnc3N)on2)cc1` has an inhibition of 1% (CaMKII (rat); inhibitor; 2 µM, added: ATP at Km).
For `Cc1nn(CC(F)(F)F)cc1Nc1nccc(NCc2ccc(S(N)(=O)=O)cc2)n1`, “number of kinases bound” read 1 (403 human wild-type kinases; scanMAX; PoC below 10).
`O=C(Nc1ccncc1)c1cc([N+](=O)[O-])ccc1Cl` has an EC90 of 2.91 µM (Toxoplasma gondii; parasite growth; HFF, bradyzoite, alkaline-induced).
For `CCCCCCCC(=O)OC[C@H](COP(=O)(O)O[C@@H]1[C@H](O)[C@H](O)[C@@H](OP(=O)(O)O)[C@H](OP(=O)(O)O)[C@H]1O)OC(=O)CCCCCCC`, “maximal open probability” read 0.611 (Kv7.2/Kv7.3(EEE) mutant channel; channel activation, activator, activation curve fit; model 1).
The bioluminescence induction of `OC[C@H]1O[C@@H]2O[C@H]3[C@H](O)[C@@H](O)[C@@H](O[C@H]4[C@H](O)[C@@H](O)[C@@H](O[C@H]5[C@H](O)[C@@H](O)[C@@H](O[C@H]6[C@H](O)[C@@H](O)[C@@H](O[C@H]7[C@H](O)[C@@H](O)[C@@H](O[C@H]8[C@H](O)[C@@H](O)[C@@H](O[C@H]1[C@H](O)[C@H]2O)O[C@@H]8CO)O[C@@H]7CO)O[C@@H]6CO)O[C@@H]5CO)O[C@@H]4CO)O[C@@H]3CO` is reported as 772 ± 31 RLU (LuxR; Escherichia coli sensor; 10 µM; higher = stronger induction).
The inhibition of `Cc1cc(F)cc2c(CCC(=O)N[C@@H]3C(=O)NC[C@H]3O)c(-c3ccc(F)cc3)[nH]c12` is reported as -3% (AMPA glutamate receptor; binding; 10 µM).
Under “selectivity score S10”, `Cc1nn(CC(F)(F)F)cc1Nc1ncc(C2CC2)c(NCc2ccc(S(N)(=O)=O)cc2)n1` is recorded as 0.005 (403 human wild-type kinases; scanMAX binding; 1 µM, hit below 10% of control; relative to: hits over kinases tested, direction not given).
For `COCCOC(=O)C1=C(C)NC(C)=C(C(=O)OC/C=C/c2ccccc2)C1c1cccc([N+](=O)[O-])c1` (centres unmarked), the EC50 was 7.51 µM (Toxoplasma gondii; parasite growth; HFF, bradyzoite, alkaline-induced).
For `CCC(=O)NS(=O)(=O)c1ccc(-c2c(-c3ccccc3)noc2C)cc1`, the activation was 0.73 fold (Gal4-VP16; reporter gene, Gal4-VP16 control reporter; 50 µM; relative to: vehicle).
For `O=C(Nc1cccc(Nc2ncc(Br)c(NCCc3cnc[nH]3)n2)c1)N1CCCC1`, “number of kinases bound” read 8 (403 human wild-type kinases; scanMAX; PoC below 10).
The activation of `CCN1CCN(c2cc(N3CCN(CC)CC3)nc(NCCNc3ccnc4cc(Cl)ccc34)n2)CC1` is reported as 1.38 ± 0.24 fold (Gal4-VP16; reporter gene, Gal4-VP16 control reporter; 20 µM; relative to: vehicle).
`NS(=O)(=O)c1ccc(CNc2nc(Nc3cccc(CN4CCOCC4)c3)ncc2Br)cc1` — result for “selectivity score S10”: 0.047 (403 human wild-type kinases; scanMAX binding; 1 µM, hit below 10% of control; relative to: hits over kinases tested, direction not given).
`[Fe+2]` — result for activity class: “active” (PP2C; enzyme activity; concentration not given).
Under “number of kinases bound”, `c1cc(CN2CCOCC2)cc(Nc2ncc(C3CC3)c(NCCc3c[nH]cn3)n2)c1` is recorded as 27 (403 human wild-type kinases; scanMAX; PoC below 10).
`CC(=O)ON=C1C=CC(=C(C#N)c2ccccc2)C=C1` has a remaining activity of 94% (pig GSK3 alpha/beta; enzyme activity, inhibitor, ADP-Glo; 20 µM, about MIC, added: ATP 10 µM).
With `CN1C(C(=O)Nc2ccccn2)=C(O)c2sc(Cl)cc2S1(=O)=O` the activation was 0.83 fold (Gal4-VP16; reporter gene, Gal4-VP16 control reporter; 30 µM; relative to: vehicle).
With `O=C(O)/C=C/c1ccc(O)cc1` the inhibition was 77.1% (gasdermin E (human); inhibitor; 100 µM, 2 h).
For `CCC(C)CNCC(=O)N1CCc2sccc2C1COc1cccc(C)c1` (centres unmarked), palmitoylation read “inactive” (Fyn; inhibitor; cells, COS-1, expressing Fyn; concentration not given).
The inhibition of `O=c1c(O)c(-c2cc(O)c(O)c(O)c2)oc2cc(O)cc(O)c12` is reported as 74.9% (gasdermin E (human); inhibitor; 100 µM, 2 h).
`c1coc(-c2n[nH]cc2-c2ccnc3ccccc23)c1`: “log2 fold change” 0.1 (FUN31 (Candida albicans); kinase binding, MIB/MS competition; Candida albicans lysate; 1 µM; relative to: DMSO).
For `Nc1ncnc2c1ncn2[C@@H]1O[C@H](COP(=O)([O-])OP(=O)([O-])OP(=O)(O)O)[C@@H](O)[C@H]1O.[Mg+2]`, the relative current was 0.829 ± 0.211 (P2X3 receptor (mouse); ion current, patch clamp; nodose ganglion neurons, P2rx3+/+ mice; 10 µM, compound anion form; relative to: ATP-induced current).
Under “selectivity score S10”, `NS(=O)(=O)c1ccc(CNc2nc(Nc3cccc(NC(=O)N4CCCC4)c3)ncc2Br)cc1` is recorded as 0.03 (403 human wild-type kinases; scanMAX binding; 1 µM, hit below 10% of control; relative to: hits over kinases tested, direction not given).
`CC[C@H](C)C(=O)O[C@H]1C[C@H](O)C=C2C=C[C@H](C)[C@H](CC[C@@H](O)C[C@@H](O)CC(=O)O)[C@H]21` has an activation of 1.12 fold (Gal4-VP16; reporter gene, Gal4-VP16 control reporter; 10 µM; relative to: vehicle).
For `Oc1ccccc1-c1n[nH]cc1-c1ccnc2ccccc12`, “log2 fold change” read 0.06 (CMK1 (Candida albicans); kinase binding, MIB/MS competition; Candida albicans lysate; 1 µM; relative to: DMSO).
`O=C(NCCCNc1ccnc(Nc2cccc(NC(=O)N3CCCC3)c2)n1)C1CCC1`: “selectivity score S10” 0.007 (403 human wild-type kinases; scanMAX binding; 1 µM, hit below 10% of control; relative to: hits over kinases tested, direction not given).
`CC(Nc1nc(N2CCCC2)nc2ccccc12)c1ccccc1` (centres unmarked): “cells with nuclear reporter” 83.9% (importin α/β1; cMyc nuclear import, high content imaging; HeLa Kyoto reporter; 0.158 µM, 2 h).
For `NS(=O)(=O)c1ccc(CNc2ccnc(Nc3cccc(CN4CCOCC4)c3)n2)cc1`, “selectivity score S10” read 0.007 (403 human wild-type kinases; scanMAX binding; 1 µM, hit below 10% of control; relative to: hits over kinases tested, direction not given).
The IC50 of `COC/C(=C/Cc1ccc(OC)cc1)c1ccc(OC)cc1` is reported as 3.21 µg/mL (≈ 10.8 µM) (STAT3; reporter gene, inhibitor; NCI-H460).

Some of these lines once more:
`CNCc1ccc(-c2cc(-c3nc(-c4ccc(S(=O)(=O)C(C)C)cc4)cnc3N)on2)cc1` has an inhibition of 1% (CaMKII (rat); inhibitor; 2 µM, added: ATP at Km).
With `CN1C(C(=O)Nc2ccccn2)=C(O)c2sc(Cl)cc2S1(=O)=O` the activation was 0.83 fold (Gal4-VP16; reporter gene, Gal4-VP16 control reporter; 30 µM; relative to: vehicle).
For `CCC(C)CNCC(=O)N1CCc2sccc2C1COc1cccc(C)c1` (centres unmarked), palmitoylation read “inactive” (Fyn; inhibitor; cells, COS-1, expressing Fyn; concentration not given).
`c1coc(-c2n[nH]cc2-c2ccnc3ccccc23)c1`: “log2 fold change” 0.1 (FUN31 (Candida albicans); kinase binding, MIB/MS competition; Candida albicans lysate; 1 µM; relative to: DMSO).
